# Measured values from different studies.
# Each line is one published result; not all experiments were run side by side. “And” joins repeats or separate records; there may be more than shown. ± gives the spread as reported.
Structure (SMILES),cell line,test,system,conditions,scale,measurement,result
COC(=O)C1CN1S(=O)(=O)c1ccc2cc(C)ccc2c1 (stereo not shown),Balb/c 3T3 fibroblasts,"cytotoxicity, neutral red uptake",DMEM with 5% FBS,24 h,,IC50,44 ± 6 µM
CC1(C)CCCC(C)(C2CCC3(C)C2C(O)CC2C4(C)CCC(OC(=O)NCc5ccccc5)C(C)(C)C4C(OC(=O)NCc4ccccc4)CC23C)O1 (stereo not shown),Hep3B,"cell growth or viability, MTT",,24 h,,IC50,> 30 µM
CNC(=O)C(Cc1ccccc1)NC(=O)C(O)(Cc1ccccc1)CN(Cc1ccc(Br)cc1)NC(=O)C(NC(=O)OC)C(C)(C)C (stereo not shown),Caco-2,,,"pH 7.4, 1% BSA in receiver",,Papp A-to-B,68.1 ± 0.2 ×10⁻⁶ cm/s
CN(C)C(=O)C1CN1S(=O)(=O)c1ccc2c(N(C)C)cccc2c1 (stereo not shown),Balb/c 3T3 fibroblasts,"cytotoxicity, neutral red uptake",DMEM with 5% FBS,24 h,,IC50,13 ± 1 µM
CCCCCCCCCC(=O)N[C@@H](Cc1ccccc1)C(=O)N[C@@H](Cc1ccccc1)C(=O)N[C@@H](Cc1ccccc1)C(=O)N[C@@H](Cc1ccccc1)C(=O)N[C@@H](CCCCN)C(=O)N[C@@H](CCCCN)C(=O)N[C@@H](CCCCN)C(=O)N[C@@H](CCCCN)C(=O)N[C@@H](CCCCN)C(N)=O,human red blood cells,haemolysis,,,,HC50,< 32 µg/mL and > 32 µg/mL
COC(=O)C1CN1S(=O)(=O)c1ccc2cc(N(C)C)ccc2c1 (stereo not shown),Balb/c 3T3 fibroblasts,"cytotoxicity, neutral red uptake",DMEM with 5% FBS,24 h,,IC50,38 ± 2 µM
CC(C)[C@H](NC(=O)OC(C)(C)C)C(=O)OC1CC2(C)C(CC(O)C3C(C4(C)CCCC(C)(C)O4)CCC32C)C2(C)CCC(O)C(C)(C)C12 (stereo partly shown),Hep3B,"cell growth or viability, MTT",,24 h,,IC50,> 30 µM
COc1ccc(-c2coc3c(CC=C(C)C)c(O)c(CC=C(C)C)c(O)c3c2=O)cc1O,A549,"cell growth or viability, MTT",,12.5 µg/mL,,viability,113%
COc1ccc(C=CC(=O)OC2CC3(C)C(CC(O)C4C(C5(C)CCCC(C)(C)O5)CCC43C)C3(C)CCC(OC(=O)C=Cc4ccc(OC)cc4)C(C)(C)C23)cc1 (stereo not shown),Hep3B,"cell growth or viability, MTT",,24 h,,IC50,> 30 µM
CNC(=O)C(NC(=O)C(O)(Cc1ccccc1)CN(Cc1ccc(Br)cc1)NC(=O)C(NC(=O)OC)C(C)(C)C)C(C)(C)C (stereo not shown),Caco-2,,,pH 7.4,relative to: B-to-A over A-to-B,efflux ratio,28
COc1cc(CN2CCN(c3ccc(OC(F)(F)F)cc3)CC2)c2cc3[n+](cc2c1O)CCc1cc2c(cc1-3)OCO2,MDCK,"cell growth or viability, SRB",,48 h,,CC50,159 µg/mL
CC(C)(C)n1cc(CN(Cc2cn(CCOCCOCCOCCOCCOCCO)nn2)Cc2cn(C(C)(C)C)nn2)nn1,OVCAR-5,"cellular uptake, LC-ESI-MS/MS",,"200 µM, 10 min, added: CuSO4 100 µM and ascorbate 500 µM",,intracellular concentration,8.6 ± 0.2 µM
COc1cc2c(cc1O)[C@]1(O)C(=O)c3c(O)cc4c(c3O[C@@H]1CO2)C=CC(C)(C)O4,RAW264.7,"cell growth or viability, MTT",,"12.5 µg/mL, 24 h",,viability,95.7%
c1cc2nc(-c3ccc(-c4nc5ccc(C6=NCCN6)cc5[nH]4)[se]3)[nH]c2cc1C1=NCCN1,HEK293 cells,"viability, resazurin reduction",,"24 h, 10% fetal bovine serum",up to,maximum non-toxic concentration,> 10 µM
COC(=O)NC(C(=O)NN(Cc1ccc(-c2cc3ccccc3s2)cc1)CC(O)(Cc1ccccc1)C(=O)NC1c2ccccc2CC1O)C(C)(C)C (stereo not shown),Caco-2,,,"pH 7.4, 1% BSA in receiver",,Papp B-to-A,1.7 ± 0.1 ×10⁻⁶ cm/s
CC(C)=CCc1c2c(c(O)c3c(=O)c(-c4ccc(O)cc4)coc13)CC(C(C)(C)O)O2 (stereo not shown),A549,"cell growth or viability, MTT",,6.25 µg/mL,,viability,142%
CN1CCc2cc(Nc3ncc(C(F)(F)F)c(NCc4cc[nH]n4)n3)ccc2C1,GL261,,,"3 µM, 72 h",,LDH release,increased
CC1(C)CCCC(C)(C2CCC3(C)C2C(O)CC2C4(C)CCC(O)C(C)(C)C4C(OC(=O)Nc4ccccc4)CC23C)O1 (stereo not shown),Hep3B,"cell growth or viability, MTT",,24 h,,IC50,> 30 µM
CC1(C)CCN(Cc2ccc(C(=O)NC[C@]3(O)CCCN(c4cc(NCc5ccccc5)ncn4)C3)c(O)c2)CC1,Caco-2,,,"10 µM, 90 min, basolateral to apical",,Papp,28.8 ×10⁻⁶ cm/s
CCCN(CC(=O)N(CCC)CC(=O)N(CCC)CC(=O)N(CCC)CC(=O)N(CC(=O)N(CCC)CC(=O)N(CCC)CC(=O)N(CCC)CC(=O)N(CCC)CC(=O)N(CC(=O)N(CCC)CC(=O)N(CCC)CC(=O)N(CCC)CC(=O)N(CCC)CC(=O)N(CC(N)=O)Cc1cn(CCCNC(=O)CCCOc2cccc(-c3nc4ccc(-c5nc6ccc(N7CCN(C)CC7)cc6[nH]5)cc4[nH]3)c2)nn1)Cc1cn(CCCNC(=O)CCCOc2cccc(-c3nc4ccc(-c5nc6ccc(N7CCN(C)CC7)cc6[nH]5)cc4[nH]3)c2)nn1)Cc1cn(CCCNC(=O)CCCOc2cccc(-c3nc4ccc(-c5nc6ccc(N7CCN(C)CC7)cc6[nH]5)cc4[nH]3)c2)nn1)C(=O)CNCc1cn(CCCNC(=O)CCCOc2cccc(-c3nc4ccc(-c5nc6ccc(N7CCN(C)CC7)cc6[nH]5)cc4[nH]3)c2)nn1,C2C12,flow cytometry,,"5 µM, 14 h",,non-fluorescent cells,17%
Nc1ncnc2c1c(C(F)(F)F)cn2[C@@H]1O[C@H](CO)[C@@H](O)[C@H]1O,MRC-5 SV2,"cytotoxicity, resazurin",medium with 5% FBS,72 h,,EC50,4.32 µM
CN(C)C(=O)C1CN1S(=O)(=O)c1ccc(N(C)C)c2ccccc12 (stereo not shown),Balb/c 3T3 fibroblasts,"cytotoxicity, neutral red uptake",DMEM with 5% FBS,24 h,,IC50,257 ± 18 µM
CC1(C)CCCC(C)(C2CCC3(C)C2C(O)CC2C4(C)CCC(OC(=O)NC5CCCCC5)C(C)(C)C4C(O)CC23C)O1 (stereo not shown),Hep3B,"cell growth or viability, MTT",,24 h,,IC50,> 30 µM
CC(C)Oc1ncnc2c1c(Cl)cn2[C@@H]1O[C@H](CO)[C@@H](O)[C@H]1O,MRC-5 SV2,"cytotoxicity, resazurin",medium with 5% FBS,72 h,,EC50,> 64 µM
CCCN(CC(=O)N(CCC)CC(=O)N(CCC)CC(=O)N(CCC)CC(=O)N(CC(=O)N(CCC)CC(=O)N(CCC)CC(=O)N(CCC)CC(=O)N(CCC)CC(=O)N(CC(N)=O)Cc1cn(CCCNC(=O)CCCOc2cccc(-c3nc4ccc(-c5nc6ccc(N7CCN(C)CC7)cc6[nH]5)cc4[nH]3)c2)nn1)Cc1cn(CCCNC(=O)CCCOc2cccc(-c3nc4ccc(-c5nc6ccc(N7CCN(C)CC7)cc6[nH]5)cc4[nH]3)c2)nn1)C(=O)CNCc1cn(CCCNC(=O)CCCOc2cccc(-c3nc4ccc(-c5nc6ccc(N7CCN(C)CC7)cc6[nH]5)cc4[nH]3)c2)nn1,C2C12,flow cytometry,,"5 µM, 48 h",,non-fluorescent cells,24%
CCCCCCCCCCCC(=O)O[C@@H](C(=O)O[C@H]1C[C@@]2(O)[C@@H](OC(=O)c3ccccc3)[C@@H]3[C@]4(OC(C)=O)CO[C@@H]4C[C@H](O)[C@@]3(C)C(=O)[C@H](O)C(=C1C)C2(C)C)[C@@H](NC(=O)OC(C)(C)C)c1ccccc1,DU-145,MTT,,48 h,"relative to: docetaxel, higher = less active",potency relative to docetaxel,20.6 fold
CCCCCCCCCC(=O)NCCCC[C@@H](NC(=O)[C@@H](CC(C)C)NC(=O)[C@@H](CCCCN)NC(=O)[C@@H](CCCCNC(=O)[C@@H](CC(C)C)NC(=O)[C@@H](CCN)NC(=O)[C@@H](CCCCNC(=O)[C@@H](Cc1ccccc1)NC(=O)[C@H](N)CCCN)NC(=O)[C@@H](Cc1ccccc1)NC(=O)[C@H](N)CCCN)NC(=O)[C@@H](CC(C)C)NC(=O)[C@@H](CCN)NC(=O)[C@@H](CCCCNC(=O)[C@@H](Cc1ccccc1)NC(=O)[C@H](N)CCCN)NC(=O)[C@@H](Cc1ccccc1)NC(=O)[C@H](N)CCCN)C(N)=O,human red blood cells,haemolysis,,"4 h, pH 7.4, 25 °C",,minimum haemolytic concentration,500 µg/mL
CN(C)C(=O)C1CN1S(=O)(=O)c1cccc2c(N(C)C)cccc12 (stereo not shown),Balb/c 3T3 fibroblasts,"cytotoxicity, neutral red uptake",DMEM with 5% FBS,24 h,,IC50,13 ± 1 µM
CC1(C)CCCC(C)(C2CCC3(C)C2C(O)CC2C4(C)CCC(OC(=O)NCc5ccccc5)C(C)(C)C4C(O)CC23C)O1 (stereo not shown),Hep3B,"cell growth or viability, MTT",,24 h,,IC50,> 30 µM
Nc1ncnc2c1c(-c1ccccn1)cn2[C@@H]1O[C@H](CO)[C@@H](O)[C@H]1O,MRC-5 SV2,"cytotoxicity, resazurin",medium with 5% FBS,72 h,,EC50,15.1 ± 4.1 µM
CC(=O)N[C@H](C(=O)N[C@H](C(=O)N[C@@H](CCCNC(=N)N)C(=O)N1Cc2ccccc2C[C@H]1C(=O)N[C@@H](Cc1ccccc1)C(N)=O)C1CCCCC1)C(C)C,human PBMC,"Bio-Plex multiplex, refers to: IL-6",,"250 µg/mL, 24 h",,cytokine level,964 ± 1370 pg/mL
N=C(N)NCCC[C@@H]1NC(=O)[C@H](CCCNC(=N)N)NC(=O)[C@H](CCCNC(=N)N)NC(=O)[C@H](Cc2ccc3ccccc3c2)NC(=O)[C@H](Cc2c[nH]c3ccccc23)NC(=O)[C@H](Cc2ccc3ccccc3c2)NC(=O)[C@H](CCCNC(=N)N)NC1=O,human red blood cells,hemolysis,,,,HC50,175 µg/mL
CN(C)C(=O)C1CN1S(=O)(=O)c1ccc(C(F)(F)F)cc1 (stereo not shown),Balb/c 3T3 fibroblasts,"cytotoxicity, neutral red uptake",DMEM with 5% FBS,24 h,,IC50,14 ± 1 µM
O=C(/C=C/c1ccc(O)cc1)OC(CO)C(=O)O (stereo not shown),"HeLa, SW480 and HCT-116",CCK-8,,"concentration not given, 12 h",,cytotoxicity,not toxic

# Repeated from above:
Structure (SMILES),cell line,test,system,conditions,scale,measurement,result
CC(C)[C@H](NC(=O)OC(C)(C)C)C(=O)OC1CC2(C)C(CC(O)C3C(C4(C)CCCC(C)(C)O4)CCC32C)C2(C)CCC(O)C(C)(C)C12 (stereo partly shown),Hep3B,"cell growth or viability, MTT",,24 h,,IC50,> 30 µM
CN(C)C(=O)C1CN1S(=O)(=O)c1ccc(C(F)(F)F)cc1 (stereo not shown),Balb/c 3T3 fibroblasts,"cytotoxicity, neutral red uptake",DMEM with 5% FBS,24 h,,IC50,14 ± 1 µM
CN1CCc2cc(Nc3ncc(C(F)(F)F)c(NCc4cc[nH]n4)n3)ccc2C1,GL261,,,"3 µM, 72 h",,LDH release,increased
COC(=O)NC(C(=O)NN(Cc1ccc(-c2cc3ccccc3s2)cc1)CC(O)(Cc1ccccc1)C(=O)NC1c2ccccc2CC1O)C(C)(C)C (stereo not shown),Caco-2,,,"pH 7.4, 1% BSA in receiver",,Papp B-to-A,1.7 ± 0.1 ×10⁻⁶ cm/s
